Measurements from different studies.
Each numbered part is a random draw from the data of one study; scales do not carry over between parts. Changes are numbered by the printed parent chain.

Sample 1
Target: Protein C-ets-1 (ETS1, Homo sapiens, UniProt P14921, residues 1-441, full length assumed)
Method: protein-binding microarray
Molecule type: double-stranded DNA, one strand shown
Matrix: in vitro
Tested at: not given
Notes: k-mer, scored over probes, only values ≥0.25
Direction: higher = stronger binding
Quantity: E-score
Target sequence (chain): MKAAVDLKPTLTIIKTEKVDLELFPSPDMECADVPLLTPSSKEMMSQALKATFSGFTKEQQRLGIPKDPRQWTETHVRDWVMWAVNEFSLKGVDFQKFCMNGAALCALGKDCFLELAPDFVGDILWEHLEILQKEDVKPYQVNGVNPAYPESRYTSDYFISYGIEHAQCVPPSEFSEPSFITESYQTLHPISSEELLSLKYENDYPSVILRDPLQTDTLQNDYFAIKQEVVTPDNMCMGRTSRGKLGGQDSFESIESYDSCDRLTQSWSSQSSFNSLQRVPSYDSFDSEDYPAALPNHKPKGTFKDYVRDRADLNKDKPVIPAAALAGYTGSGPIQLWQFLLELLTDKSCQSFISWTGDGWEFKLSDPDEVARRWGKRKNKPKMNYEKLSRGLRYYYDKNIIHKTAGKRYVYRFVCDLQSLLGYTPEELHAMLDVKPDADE
AGCTTTCC: 0.272
AAGCCGGA: 0.421
ACAGGATA: 0.438
GTAGGACA: 0.253
ATATCCGC: 0.462
CTTCCCTC: 0.285
CCCCTTCC: 0.412
GATACGGA: 0.356
AATATCCG: 0.455
TGAAGGAA: 0.284
GCGGGGAA: 0.255
AAGAGGAA: 0.367
AGCCGGGA: 0.258
GTAGCGGA: 0.279

Sample 2
Target: BATF3, bZIP domain (human)
Method: DHFR protein complementation
Matrix: yeast
Notes: single substitutions, most at no-binding floor
Reference: wild-type JUN-FOS pair
Direction: higher = stronger binding
Quantity: binding fitness
Starting sequence: JUN, bZIP domain (human); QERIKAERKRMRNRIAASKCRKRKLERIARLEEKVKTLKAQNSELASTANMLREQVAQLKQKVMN; partner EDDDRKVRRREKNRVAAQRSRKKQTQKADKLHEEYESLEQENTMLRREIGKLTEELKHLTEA
I28A: 0.198 natural log
L52G: -1.19 natural log
T48D: 0.0828 natural log
V35Y: 0.0485 natural log
Q41W: -0.967 natural log
L38R: 0.0488 natural log
K36D: 0.223 natural log
K36E: 0.195 natural log
K39L: 0.109 natural log
A57Y: 0.186 natural log
V35S: -0.046 natural log
K36M: 0.359 natural log
S47R: 0.21 natural log
A46R: 0.2 natural log
L52D: -1.04 natural log
R30K: 0.126 natural log
L45I: -0.0628 natural log
A29G: 0.174 natural log
V56K: -0.0785 natural log

Sample 3
Target: Interferon regulatory factor 7, full length, phosphomimetic (IRF7, Homo sapiens, UniProt Q92985, residues 1-503, S471D/S472D/S475D/S476D/S477D/S483D/S484D/S487D)
Sequence of UniProt Q92985 (whole entry, unmodified, looked up): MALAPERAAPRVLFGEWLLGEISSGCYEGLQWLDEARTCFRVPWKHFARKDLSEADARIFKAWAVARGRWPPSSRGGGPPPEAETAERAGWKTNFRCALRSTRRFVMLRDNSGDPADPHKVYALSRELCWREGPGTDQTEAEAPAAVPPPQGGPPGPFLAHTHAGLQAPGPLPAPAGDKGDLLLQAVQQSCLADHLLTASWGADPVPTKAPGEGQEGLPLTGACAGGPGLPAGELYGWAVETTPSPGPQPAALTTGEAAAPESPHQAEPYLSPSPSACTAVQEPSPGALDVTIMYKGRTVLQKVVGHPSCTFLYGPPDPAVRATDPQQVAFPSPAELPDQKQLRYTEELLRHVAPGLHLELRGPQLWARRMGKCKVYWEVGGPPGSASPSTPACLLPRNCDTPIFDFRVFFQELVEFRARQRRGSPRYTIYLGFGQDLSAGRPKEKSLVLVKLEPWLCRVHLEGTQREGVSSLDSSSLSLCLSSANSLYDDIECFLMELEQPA
Method: protein-binding microarray
Molecule type: double-stranded DNA, one strand shown
Matrix: in vitro
Tested at: 2200 nM top
Notes: 60-bp whole probe
Together with: salmon DNA 0.4 mg/ml
Reference: random background probes
Direction: higher = stronger binding
Quantity: fitted relative affinity
Shared flanks, not repeated: GCCTAGCAC … GTCTTGATTCGCTTGACGCTGCTG
TTAGGTTTCGACTATCGGTTTGTGCTA: 4.51 z-score
TCAACACTCACCATGGCACTGTGCTAG: 0.545 z-score
TCACCTTCACCTCTCTGACTGTGCTAG: 2.3 z-score
GACGATTTCAGTTACGAGACGTGCTAG: 0.997 z-score
TATAATATATATTCATATATGTGCTAG: 0.376 z-score
GACGCTATCAGACTGGAGACGTGCTAG: 0.052 z-score
TTAGGTTCCGGTTTAGGTTAGTGCTAG: 3.83 z-score
TTACATTTCGGGACTGGATTAGTGCTA: 1.94 z-score
TTAGGTTTCGGGACTGGGTTAGTGCTA: 3.24 z-score
GACGGTATCGGACTGGGCACGTGCTAG: -0.585 z-score
TTAGATTCCAGTTTCGATTCGTGCTAG: 12.4 z-score
AAAGATTTACAAACTGTGAGGGTGCTA: -0.894 z-score
TTAGGTCTCCTGCTCCTTTAGTGCTAG: 0.69 z-score
TAATGGATATATATCATTTAGTGCTAG: 0.25 z-score
TATGTTCCCTATTTAAGACCGTGCTAG: 1.68 z-score
TTAGGTATCGGGATTGGGTTAGTGCTA: -0.00604 z-score
TTAGGACTGGCTATCGGTTAGTGCTAG: -0.232 z-score
TTAGGACTGGGTCTCGGCTAGTGCTAG: -0.642 z-score

Sample 4
Target: CCNB3, cyclin fold, Cln2 fusion (human)
Method: yeast growth competition, sequencing
Matrix: yeast
Notes: weak parent motif
Reference: not given
Direction: higher = stronger binding
Quantity: normalised enrichment score
Starting sequence: MASTL docking peptide (human); PMIAKNLMCELDE; partner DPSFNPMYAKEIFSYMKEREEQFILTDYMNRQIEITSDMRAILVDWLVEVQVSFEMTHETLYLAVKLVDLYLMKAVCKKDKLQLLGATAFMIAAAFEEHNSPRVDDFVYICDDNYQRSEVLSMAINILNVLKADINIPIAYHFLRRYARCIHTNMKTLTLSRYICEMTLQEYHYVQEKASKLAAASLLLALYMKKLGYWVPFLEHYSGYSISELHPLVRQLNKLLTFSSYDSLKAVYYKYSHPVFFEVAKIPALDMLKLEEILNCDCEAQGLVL
PMIAKNLACELDE [M8A]: -0.0891
PMIAYNLMCELDE [K5Y]: -0.0653
PMIATNLMCELDE [K5T]: 0.00469
PMIAKNLMCEQDE [L11Q]: 0.0556
PMIAKNLMQELDE [C9Q]: -0.0539
PMIAKNLMCELYE [D12Y]: -0.438
PMIAKNHMCELDE [L7H]: -0.813
PMIAKNLPCELDE [M8P]: -0.149
PMIAKNLMCCLDE [E10C]: 0.0265
PMIMKNLMCELDE [A4M]: 0.0303
PKIAKNLMCELDE [M2K]: -0.0718
PYIAKNLMCELDE [M2Y]: 0.377
PMIRKNLMCELDE [A4R]: 0.499
PMIAKNLMCMLDE [E10M]: 0.098
PMIAKNLMCYLDE [E10Y]: 0.295
PMIAKRLMCELDE [N6R]: 0.234
PMIASNLMCELDE [K5S]: -0.448
PMIAPNLMCELDE [K5P]: 0.0796
PMIAKNLTCELDE [M8T]: -0.333

Sample 5
Target: Ras GTPase-activating protein-binding protein 1, full length (G3BP1, Homo sapiens, UniProt Q13283)
Sequence of UniProt Q13283 (whole entry, looked up): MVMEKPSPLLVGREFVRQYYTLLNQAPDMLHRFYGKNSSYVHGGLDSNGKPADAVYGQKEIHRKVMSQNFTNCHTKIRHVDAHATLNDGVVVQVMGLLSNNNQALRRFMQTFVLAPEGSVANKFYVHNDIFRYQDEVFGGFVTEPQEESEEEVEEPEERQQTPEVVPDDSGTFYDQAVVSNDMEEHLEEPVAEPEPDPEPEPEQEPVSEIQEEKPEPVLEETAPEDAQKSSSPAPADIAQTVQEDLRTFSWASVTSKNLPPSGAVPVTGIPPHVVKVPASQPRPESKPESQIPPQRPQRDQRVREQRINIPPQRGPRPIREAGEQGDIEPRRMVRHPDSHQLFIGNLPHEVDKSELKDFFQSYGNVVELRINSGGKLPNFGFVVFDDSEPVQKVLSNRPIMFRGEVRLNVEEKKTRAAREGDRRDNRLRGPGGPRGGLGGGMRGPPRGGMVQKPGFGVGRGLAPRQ
Method: RNA Bind-n-Seq
Molecule type: RNA
Matrix: in vitro
Tested at: 200 nM
Notes: whole 134-nt RNA, ends assumed
Together with: 150 mM KCl
Reference: input library
Direction: higher = stronger binding
Quantity: log2 enrichment
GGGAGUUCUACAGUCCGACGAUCUCAAGUCCUGUGCUACACAUCGUAUGUACCGAAUCGGGGAAGGAAGGGGAAGGGGAAAGUAUUAUGUUACGCCGUUCGGAUCUGCACUUCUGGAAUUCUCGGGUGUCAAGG: 0.741
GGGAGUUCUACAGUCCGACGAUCUGGGAGGUGGAUUUUGUUUAUUUUUUUAGCUCAUUUCCAGGGGUGUGAAUUUUUUUUUAAUAUGUGUCAUGAAUAAAGUUGUUUUUGAAAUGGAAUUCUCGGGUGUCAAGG: 0.345
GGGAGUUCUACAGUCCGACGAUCUAACUGUAGAGGAGGAUCUGAUGGAUAUGGCAGUGGACGUGGAUUUGGGGAUGGCUAUAAUGGGUAUGGAGGAGGACCUGGAGGUGGCAAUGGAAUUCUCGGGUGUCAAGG: 0.559
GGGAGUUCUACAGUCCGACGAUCCACAGAGAACACGCACCCACACAGACACAGAGGGAAGGGGUUGGGAUGGGGACAGGGUGCACAGCAGGGCGGGGUAGGACCCCAGCCCCUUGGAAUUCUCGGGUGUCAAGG: 1.63
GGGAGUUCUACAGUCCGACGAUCCAAGUCCUGUGCUACACAUCGUAUGUACCGAAUCGGGAAAAAGGGUGGGAAAGGGAAAGUAUUAUGUUACGCCGUUCGGAUCUGCACUUCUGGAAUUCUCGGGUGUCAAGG: 0.649
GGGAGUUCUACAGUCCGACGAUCGUCCUGUGCUACACAUCGUAUGUACCGAAUCGGGCCCCCGGGGCCCCCGGCCCCCGGGAAAGUAUUAUGUUACGCCGUUCGGAUCUGCACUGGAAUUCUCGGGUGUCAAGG: -0.687
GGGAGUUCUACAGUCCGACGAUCCAAGUCCUGUGCUACACAUCGUAUGUACCGAAUCGGAAAAAAAGGAAAAAGGAGGAAAGUAUUAUGUUACGCCGUUCGGAUCUGCACUUCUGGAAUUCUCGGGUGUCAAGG: -0.935
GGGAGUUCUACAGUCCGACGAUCUCAAGUCCUGUGCUACACAUCGUAUGUACCGAAUCGGGUUGGGGUUGGGUUGGGGAAAGUAUUAUGUUACGCCGUUCGGAUCUGCACUUCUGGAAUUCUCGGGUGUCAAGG: 1.02
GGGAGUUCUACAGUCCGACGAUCACCAUGCAGGUGGGCAUCUUUGGGAAGUGGGGCAAGGGGGGGAUAGGGAGGGGGGUAACACUUUGGGAACAGGUGGUCCCAGGUCGUUUCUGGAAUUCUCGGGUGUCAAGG: 1.15
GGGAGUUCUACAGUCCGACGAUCAGUCCUGUGCUACACAUCGUAUGUACCGAAUCGGGAAAAAGGAAAAAGGGAAAAAGGGAAAGUAUUAUGUUACGCCGUUCGGAUCUGCACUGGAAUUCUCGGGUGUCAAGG: -0.786

Further values, each from its own experiment
PhoQ, residues 284 288 289 292 302 303 NLALSC — fold induction (PhoP, residues 12 14 15 18 19 NFCKL (Escherichia coli, UniProt P23836); Sort-seq, item: YFP reporter; E. coli; PhoQ-PhoP variant library, together with: 10 µM Mg2+; reference: high Mg2+ state, higher = stronger signaling): 2.56

Excerpt of the above (sample 2):
V35S: -0.046 natural log
K36M: 0.359 natural log
S47R: 0.21 natural log
A46R: 0.2 natural log
L52D: -1.04 natural log
R30K: 0.126 natural log
L45I: -0.0628 natural log
A29G: 0.174 natural log
V56K: -0.0785 natural log
